Measurements collected from several papers.
Each numbered part is a random draw from the data of one study; scales do not carry over between parts.
UniProt P07333, sequence (whole entry, looked up): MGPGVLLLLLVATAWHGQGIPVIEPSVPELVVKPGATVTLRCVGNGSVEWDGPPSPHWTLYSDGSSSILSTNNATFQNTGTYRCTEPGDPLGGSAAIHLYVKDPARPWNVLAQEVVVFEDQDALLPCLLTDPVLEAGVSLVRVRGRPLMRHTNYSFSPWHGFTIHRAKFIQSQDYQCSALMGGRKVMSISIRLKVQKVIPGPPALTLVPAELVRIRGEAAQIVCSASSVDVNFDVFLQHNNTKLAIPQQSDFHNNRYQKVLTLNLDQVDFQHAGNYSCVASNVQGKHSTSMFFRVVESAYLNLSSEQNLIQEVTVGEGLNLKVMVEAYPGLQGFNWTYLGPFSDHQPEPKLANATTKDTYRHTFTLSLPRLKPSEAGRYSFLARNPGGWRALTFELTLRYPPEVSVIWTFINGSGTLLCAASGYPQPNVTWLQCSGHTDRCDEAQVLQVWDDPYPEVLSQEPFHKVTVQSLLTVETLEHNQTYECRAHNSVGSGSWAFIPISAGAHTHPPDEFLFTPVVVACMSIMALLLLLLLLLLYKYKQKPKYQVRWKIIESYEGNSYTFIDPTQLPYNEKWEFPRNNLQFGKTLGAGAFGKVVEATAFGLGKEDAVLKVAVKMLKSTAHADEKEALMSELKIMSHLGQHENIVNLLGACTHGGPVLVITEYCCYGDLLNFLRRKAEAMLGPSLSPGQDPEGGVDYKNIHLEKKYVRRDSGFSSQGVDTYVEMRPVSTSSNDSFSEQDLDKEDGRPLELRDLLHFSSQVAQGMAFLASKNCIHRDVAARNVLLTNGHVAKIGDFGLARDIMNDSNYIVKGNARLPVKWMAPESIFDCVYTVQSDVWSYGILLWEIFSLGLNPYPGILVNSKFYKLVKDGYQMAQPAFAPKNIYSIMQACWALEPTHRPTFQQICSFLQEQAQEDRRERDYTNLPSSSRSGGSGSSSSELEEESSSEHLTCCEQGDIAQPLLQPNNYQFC
UniProt P57078, sequence (whole entry, looked up): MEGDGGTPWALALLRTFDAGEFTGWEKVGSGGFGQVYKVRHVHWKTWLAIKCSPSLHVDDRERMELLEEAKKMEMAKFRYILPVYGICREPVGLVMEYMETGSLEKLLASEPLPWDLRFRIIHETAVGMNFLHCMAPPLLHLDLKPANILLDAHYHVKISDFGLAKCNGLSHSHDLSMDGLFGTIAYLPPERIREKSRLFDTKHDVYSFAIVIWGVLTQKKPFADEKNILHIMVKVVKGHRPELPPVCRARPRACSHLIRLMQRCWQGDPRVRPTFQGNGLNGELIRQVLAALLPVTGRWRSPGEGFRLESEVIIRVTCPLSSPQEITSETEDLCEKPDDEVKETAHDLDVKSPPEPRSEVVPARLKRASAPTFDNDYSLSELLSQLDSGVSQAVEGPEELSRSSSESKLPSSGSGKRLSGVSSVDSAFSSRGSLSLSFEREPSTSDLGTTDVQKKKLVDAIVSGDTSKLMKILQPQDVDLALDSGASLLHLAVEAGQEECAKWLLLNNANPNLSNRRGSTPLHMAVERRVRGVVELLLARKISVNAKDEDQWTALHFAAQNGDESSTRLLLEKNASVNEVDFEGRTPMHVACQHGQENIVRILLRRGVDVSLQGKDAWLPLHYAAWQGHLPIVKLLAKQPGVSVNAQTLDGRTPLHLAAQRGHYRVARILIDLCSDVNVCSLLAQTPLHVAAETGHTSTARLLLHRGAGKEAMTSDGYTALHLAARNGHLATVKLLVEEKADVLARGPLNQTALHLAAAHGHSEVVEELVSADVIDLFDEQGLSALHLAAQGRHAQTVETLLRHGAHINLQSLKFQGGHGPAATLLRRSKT
UniProt P0C1S8, sequence (whole entry, looked up): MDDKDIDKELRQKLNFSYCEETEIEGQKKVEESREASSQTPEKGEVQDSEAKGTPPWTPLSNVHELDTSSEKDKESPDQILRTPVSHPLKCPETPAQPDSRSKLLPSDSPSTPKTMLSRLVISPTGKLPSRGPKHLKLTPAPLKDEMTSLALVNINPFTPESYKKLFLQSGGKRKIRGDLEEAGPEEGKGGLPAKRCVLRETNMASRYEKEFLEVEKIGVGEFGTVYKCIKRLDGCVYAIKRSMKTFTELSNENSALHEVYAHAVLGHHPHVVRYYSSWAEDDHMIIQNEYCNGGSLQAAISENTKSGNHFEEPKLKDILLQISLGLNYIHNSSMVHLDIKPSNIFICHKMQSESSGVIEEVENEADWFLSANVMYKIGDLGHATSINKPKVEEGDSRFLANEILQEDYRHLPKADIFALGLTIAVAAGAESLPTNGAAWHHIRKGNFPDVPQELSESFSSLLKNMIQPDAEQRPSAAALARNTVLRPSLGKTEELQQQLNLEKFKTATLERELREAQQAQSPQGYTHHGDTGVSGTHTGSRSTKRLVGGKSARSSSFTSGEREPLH
UniProt Q8TDX7, sequence (whole entry, looked up): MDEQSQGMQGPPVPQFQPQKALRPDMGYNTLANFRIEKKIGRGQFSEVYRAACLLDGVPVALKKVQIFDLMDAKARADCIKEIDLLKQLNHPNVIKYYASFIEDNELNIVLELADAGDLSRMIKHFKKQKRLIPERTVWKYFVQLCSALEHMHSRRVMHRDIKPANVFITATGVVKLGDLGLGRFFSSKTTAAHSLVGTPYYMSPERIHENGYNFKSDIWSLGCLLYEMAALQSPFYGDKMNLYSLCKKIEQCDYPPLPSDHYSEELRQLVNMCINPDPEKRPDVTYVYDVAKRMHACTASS
UniProt P49674, sequence (whole entry, looked up): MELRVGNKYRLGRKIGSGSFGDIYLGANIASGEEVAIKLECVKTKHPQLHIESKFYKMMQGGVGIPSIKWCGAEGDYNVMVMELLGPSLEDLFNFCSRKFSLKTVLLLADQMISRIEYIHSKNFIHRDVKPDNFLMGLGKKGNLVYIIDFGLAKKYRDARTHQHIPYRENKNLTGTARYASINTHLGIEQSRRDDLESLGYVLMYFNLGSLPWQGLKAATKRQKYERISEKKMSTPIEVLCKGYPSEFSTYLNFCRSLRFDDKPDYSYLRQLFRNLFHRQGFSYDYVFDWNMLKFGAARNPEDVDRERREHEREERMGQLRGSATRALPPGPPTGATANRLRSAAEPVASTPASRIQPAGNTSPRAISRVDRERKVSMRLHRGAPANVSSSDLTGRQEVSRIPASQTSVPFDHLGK
UniProt O94921, sequence (whole entry, looked up): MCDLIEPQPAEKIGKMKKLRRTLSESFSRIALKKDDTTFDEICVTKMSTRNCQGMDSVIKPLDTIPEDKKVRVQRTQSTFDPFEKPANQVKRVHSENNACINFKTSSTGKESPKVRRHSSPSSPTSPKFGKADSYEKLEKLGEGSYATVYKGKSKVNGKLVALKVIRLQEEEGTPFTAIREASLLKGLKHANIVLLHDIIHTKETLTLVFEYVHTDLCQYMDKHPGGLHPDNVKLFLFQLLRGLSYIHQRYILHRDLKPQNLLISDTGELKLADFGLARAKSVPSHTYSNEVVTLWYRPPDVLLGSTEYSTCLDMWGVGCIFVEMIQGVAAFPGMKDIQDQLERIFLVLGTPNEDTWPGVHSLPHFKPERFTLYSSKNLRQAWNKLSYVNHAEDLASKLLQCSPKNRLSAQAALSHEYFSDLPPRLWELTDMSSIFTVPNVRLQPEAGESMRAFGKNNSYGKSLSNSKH
UniProt Q6XUX3, sequence (whole entry, looked up): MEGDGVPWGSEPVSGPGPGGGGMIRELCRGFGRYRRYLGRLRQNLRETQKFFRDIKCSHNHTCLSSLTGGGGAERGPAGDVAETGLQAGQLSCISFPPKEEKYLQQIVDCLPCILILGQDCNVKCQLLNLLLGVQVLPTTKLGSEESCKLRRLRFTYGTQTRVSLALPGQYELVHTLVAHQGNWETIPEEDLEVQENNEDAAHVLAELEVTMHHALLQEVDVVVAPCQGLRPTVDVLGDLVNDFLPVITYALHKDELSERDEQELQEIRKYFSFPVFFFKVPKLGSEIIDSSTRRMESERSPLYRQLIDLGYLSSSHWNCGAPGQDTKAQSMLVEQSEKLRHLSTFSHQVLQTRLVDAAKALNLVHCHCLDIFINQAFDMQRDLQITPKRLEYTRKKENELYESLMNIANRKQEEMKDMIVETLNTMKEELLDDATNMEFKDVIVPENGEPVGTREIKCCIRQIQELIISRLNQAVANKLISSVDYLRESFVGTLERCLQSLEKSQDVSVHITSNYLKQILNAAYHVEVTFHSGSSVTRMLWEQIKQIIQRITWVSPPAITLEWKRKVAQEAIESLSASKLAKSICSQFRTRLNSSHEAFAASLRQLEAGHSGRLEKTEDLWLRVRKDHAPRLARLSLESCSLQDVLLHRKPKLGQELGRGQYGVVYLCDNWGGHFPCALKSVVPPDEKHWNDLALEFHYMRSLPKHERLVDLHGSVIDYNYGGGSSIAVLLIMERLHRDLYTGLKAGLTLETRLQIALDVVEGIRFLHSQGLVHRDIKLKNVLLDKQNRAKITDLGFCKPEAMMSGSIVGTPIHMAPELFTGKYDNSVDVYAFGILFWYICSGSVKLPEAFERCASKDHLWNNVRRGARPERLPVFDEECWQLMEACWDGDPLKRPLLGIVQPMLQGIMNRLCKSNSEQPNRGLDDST
UniProt P19525, sequence (whole entry, looked up): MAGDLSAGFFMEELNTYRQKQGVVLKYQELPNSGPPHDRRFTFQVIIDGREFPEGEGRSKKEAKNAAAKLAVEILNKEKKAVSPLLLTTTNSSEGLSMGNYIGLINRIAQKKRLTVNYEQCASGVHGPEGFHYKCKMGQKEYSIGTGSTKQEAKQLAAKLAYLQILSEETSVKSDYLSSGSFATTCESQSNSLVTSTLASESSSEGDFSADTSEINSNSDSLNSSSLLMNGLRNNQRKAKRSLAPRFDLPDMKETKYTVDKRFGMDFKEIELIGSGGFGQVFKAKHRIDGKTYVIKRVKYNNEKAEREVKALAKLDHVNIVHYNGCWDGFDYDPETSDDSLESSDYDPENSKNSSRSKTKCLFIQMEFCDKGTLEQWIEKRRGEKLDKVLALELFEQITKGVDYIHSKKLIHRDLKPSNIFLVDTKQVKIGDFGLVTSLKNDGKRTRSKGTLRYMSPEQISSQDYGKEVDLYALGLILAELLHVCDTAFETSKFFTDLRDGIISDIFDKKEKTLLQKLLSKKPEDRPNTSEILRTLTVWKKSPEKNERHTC

Block 1
Organism: Sarcocystis neurona
Read-out: parasite growth
Concentration: 10 µM
Time: 96 h
Setting: second screen
Baseline: untreated
Endpoint: log2 fold change
Nc1nc(Cl)nc2c1ncn2[C@H]1C[C@H](O)[C@@H](CO)O1: 0.27
COc1ccnc(C[S+]([O-])c2nc3ccc(OC(F)F)cc3[nH]2)c1OC (stereo not shown): 0.95
CNS(=O)(=O)Cc1ccc2[nH]cc(CCN(C)C)c2c1: 0.32
Nc1nc(N)nc(-c2cc(Cl)ccc2Cl)n1: -0.27
Nc1c2c(nc3c1CCC3)CCCC2: 0.23
Nc1nc(O)c2ncn(COC(CO)CO)c2n1: 0.27
Cc1cccc(C)c1NC(=O)C1CCCCN1C (stereo not shown): 0.14
OC(Cn1cncn1)(Cn1cncn1)c1ccc(F)cc1F: 0.1

Block 2
Technique: logD(dd/w) and ALogP
Setting: MRN method
Endpoint: lipophilic permeability efficiency
CC[C@@H]1C(=O)N(C)[C@@H](CC)C(=O)N[C@@H](CC(C)C)C(=O)N2CCC[C@@H]2C(=O)N(C)[C@@H](Cc2ccccc2)C(=O)N[C@@H](CC(C)C)C(=O)N1C: 3.75
CC[C@@H]1C(=O)N(C)[C@@H](CC2CCCCC2)C(=O)N[C@@H](CC2CCCCC2)C(=O)N2CCC[C@@H]2C(=O)N(C)[C@@H](Cc2ccc(O)cc2)C(=O)N[C@@H](CC(C)C)C(=O)N1C: 1.32
CC[C@H]1NC(=O)[C@H](CC(C)C)NC(=O)[C@H](Cc2ccc(O)cc2)NC(=O)[C@H]2CCCN2C(=O)[C@H](CC2CCCCC2)NC(=O)[C@H](CC2CCCCC2)NC1=O: -0.0445
CC[C@@H]1C(=O)N(C)[C@@H](CC(C)C)C(=O)N[C@@H](CC(C)C)C(=O)N2CCC[C@@H]2C(=O)N(C)[C@@H](Cc2ccccc2)C(=O)N[C@@H](CC(C)C)C(=O)N1C: 3.84
CC[C@@H]1NC(=O)[C@@H](CC(C)C)NC(=O)[C@H](CC(C)C)NC(=O)[C@H](Cc2ccccc2)NC(=O)[C@H]2CCCN2C(=O)[C@H](CC(C)C)NC1=O: 1.91
CC[C@H]1NC(=O)[C@H](CC(C)C)NC(=O)[C@H](Cc2ccccc2)NC(=O)[C@H]2CCCN2C(=O)[C@H](CC(C)C)NC(=O)[C@H](C)NC1=O: 1.72
CCC[C@H]1NC(=O)[C@H](CC(C)C)NC(=O)[C@H](Cc2ccccc2)NC(=O)[C@H]2CCCN2C(=O)[C@H](CC2CCCCC2)NC(=O)[C@H](CC2CCCCC2)NC1=O: 1.73
CC[C@H]1C(=O)N[C@@H](CC(C)C)C(=O)N2CCC[C@@H]2C(=O)N(C)[C@@H](Cc2ccc(O)cc2)C(=O)N[C@@H](CC(C)C)C(=O)N(C)[C@H](C)C(=O)N1C: 1.46

Block 3
Species: human
Sample: microsomes or S9
Concentration: 2 µM
Time: 0.5 h
Endpoint: remaining compound
CCCc1ncc(C(O)c2ccc(OCC)cc2)n1C (stereo not shown): 22%
COc1cc2c(cc1NC(=O)C(C(C)=O)=C(SC)SC)oc1ccccc12: 14%
COc1cc(-c2nnc3ccc4ccccc4n23)cc(OC)c1OC: 52.2%
O=C(Nc1ccc(N2CCCS2(=O)=O)cc1)NC1CCCCC1: 86.9%
CC(C)n1ncc2c1N=C(O)CC2C1CCCCC1 (stereo not shown): 67.1%
COc1cc(=O)[nH]cc1C(=O)N1CCCC(N2CCOCC2)C1 (stereo not shown): 91.3%

Block 4
SMILES: COc1ccc2c(O[C@@H]3C[C@H]4C(=O)N[C@]5(C(=O)O)CC5/C=C\CCCCC[C@H](NC(=O)OC5CCCC5)C(=O)N4C3)cc(-c3csc(NC(=O)C(C)C)n3)nc2c1C (stereo partly shown)
Concentration: 1 µM
Endpoint: remaining binding
CDK14 (Homo sapiens, UniProt O94921); cell-free assay, competition with immobilised ligand: 88%
EIF2AK2 (Homo sapiens, UniProt P19525); cell-free assay, competition with immobilised ligand: 100%
CSNK1E (Homo sapiens, UniProt P49674); cell-free assay, competition with immobilised ligand: 100%
Macrophage colony-stimulating factor 1 receptor, autoinhibited (CSF1R, Homo sapiens, UniProt P07333); cell-free assay, competition with immobilised ligand: 89%
CAMK2B (Homo sapiens, UniProt Q13554); cell-free assay, competition with immobilised ligand: 100%
WEE2 (Homo sapiens, UniProt P0C1S8); cell-free assay, competition with immobilised ligand: 100%
DCLK2 (Homo sapiens, UniProt Q8N568); cell-free assay, competition with immobilised ligand: 95%
RIPK4 (Homo sapiens, UniProt P57078); cell-free assay, competition with immobilised ligand: 65%
EGFR (Homo sapiens, UniProt P00533, A750P/del747-749); cell-free assay, competition with immobilised ligand: 98%
DSTYK (Homo sapiens, UniProt Q6XUX3); cell-free assay, competition with immobilised ligand: 68%
NEK7 (Homo sapiens, UniProt Q8TDX7); cell-free assay, competition with immobilised ligand: 100%
SIK1 (Homo sapiens, UniProt P57059); competition binding: 100%
CDK2 (Homo sapiens, UniProt P24941); cell-free assay, competition with immobilised ligand: 99%
FLT3 (Homo sapiens, UniProt P36888, ITD); cell-free assay, competition with immobilised ligand: 97%
FLT3 (Homo sapiens, UniProt P36888, K663Q); cell-free assay, competition with immobilised ligand: 81%

Excerpt of the above (block 3):
CC(C)n1ncc2c1N=C(O)CC2C1CCCCC1 (stereo not shown): 67.1%
COc1cc(-c2nnc3ccc4ccccc4n23)cc(OC)c1OC: 52.2%
O=C(Nc1ccc(N2CCCS2(=O)=O)cc1)NC1CCCCC1: 86.9%
CCCc1ncc(C(O)c2ccc(OCC)cc2)n1C (stereo not shown): 22%
COc1cc(=O)[nH]cc1C(=O)N1CCCC(N2CCOCC2)C1 (stereo not shown): 91.3%
